# Measurements collected from several papers.
# Each line is one published result; not all experiments were run side by side.
Structure (SMILES),tested on,test,system,conditions,how to read,endpoint,value
CCn1cc(-c2cc(Cn3ccnc3)cc3c2CCN([C@H](c2cc(OC)ccn2)C2CC2)C3=O)c(C(F)(F)F)n1,LUDLU-1,"cell growth, inhibitor",,120 h,,EC50,> 30 µM
CN(C)c1ncnc2nc[nH]c12,,"binding, equilibrium dialysis LC-MS",,"5 µM, thermostabilized A2AR-BRIL construct","reference: no-protein control, direction not given",z-scored log2 fold change,2.64
C[C@@H](Oc1cc(-c2cnn(C3CCNCC3)c2)cnc1N)c1c(Cl)ccc(F)c1Cl,iCell Cardiomyocytes (hiPSC-derived),cellular impedance,,"concentration not given, 24 h",reference: control,cell index,102%
Cn1cc(-c2ccc(-c3cncc(Cl)c3N3CCC4(CCNC4=O)CC3)cc2)cn1,COLO 205,"gene expression, microarray, item: SLC39A8 mRNA",,"concentration not given, 2 h",reference: untreated cells,log2 fold change,2.3
Oc1cccc(-c2nc(N3CCOCC3)c3oc4ncccc4c3n2)c1,iCell Cardiomyocytes (hiPSC-derived),xCELLigence Cardio impedance,,"concentration not given, 2 h",reference: control,beat rate,105%
N#Cc1ccn2c(-c3ccncc3)c(-c3ccc(F)cc3)nc2c1,,"kinase binding, competitor, MIB/MS competition, item: MCK1",Candida albicans cell lysate,10 µM,reference: DMSO,log2 fold change,0.392
C[C@H](Oc1ccc(Br)cc1-c1ccon1)C(=O)O,,muscle velocity recovery cycles,"human, tibialis anterior muscle","400 mg once daily, multiple doses, multiple ascending dose",reference: placebo,interstimulus interval at ESN,-0.88 ms
C=CC(=O)Nc1cc2c(Nc3ccc(F)c(Cl)c3)ncnc2cc1OCCCN1CCOCC1,NLRP3 inflammasome (mouse),,mouse BMDM,10 µM,,inhibition,86.2%
COc1ccc(-c2nc(N3CCOCC3)c3sc(CN(C)c4ncc(C(=O)NO)cn4)cc3n2)cn1,human alphaherpesvirus 1,live-cell GFP imaging,"primary human fibroblasts, K26 GFP",,,IC50,> 60 µM
CC(=O)N[C@H]1[C@H]([C@H](O)[C@H](O)CO)O[C@](OP(=O)(O)OC[C@H]2O[C@@H](n3ccc(N)nc3=O)[C@H](O)[C@@H]2O)(C(=O)O)C[C@@H]1O,,"binding, equilibrium dialysis LC-MS",,"5 µM, thermostabilized A2AR-BRIL construct","reference: no-protein control, direction not given",z-scored log2 fold change,0.123
CC(C)NCC(O)c1ccc(O)c(O)c1 (centres unmarked),,,"ventricular cardiomyocytes, C57BL/6 mouse","dose not given, 0.724 s",,sarcomere length,1.72 µm
Cc1nc(N(C)C(=O)Cc2ccc(-c3ccccn3)cc2)sc1S(N)(=O)=O,human alphaherpesvirus 1,live-cell GFP imaging,"primary human fibroblasts, K26 GFP",,,IC50,0.15 µM
CN(C)C/C=C/C(=O)Nc1cc2c(Nc3ccc(F)c(Cl)c3)ncnc2cc1O[C@H]1CCOC1,NLRP3 inflammasome (mouse),,mouse BMDM,10 µM,,inhibition,87.3%
OC(CCN1CCCCC1)(c1ccccc1)C1CC2C=CC1C2 (centres unmarked),,resting-state EEG,healthy elderly humans,"oral, 4 mg, eyes closed, LS mean",,"EEG theta power, O1 Pz",7.4 µV²
CC(C)c1cnn2c(NCc3ccccc3-n3cccn3)nc(OC3CCCNC3)nc12 (centres unmarked),human alphaherpesvirus 1,"viral replication, GFP live imaging","primary human keratinocytes, K26 GFP-expressing",,,IC50,1.56 µM
N#CC[C@H](C1CCCC1)n1cc(-c2ncnc3[nH]ccc23)cn1,iCell Cardiomyocytes (hiPSC-derived),CellTiter-Glo,,"concentration not given, 24 h",reference: control,ATP level,105%
CC[C@H](N)C(=O)O,,"binding, equilibrium dialysis LC-MS",,"5 µM, thermostabilized A2AR-BRIL construct","reference: no-protein control, direction not given",z-scored log2 fold change,0.285
Clc1ccc(Nc2nnc(Cc3ccncc3)c3ccccc23)cc1,iCell Cardiomyocytes (hiPSC-derived),xCELLigence Cardio impedance,,"concentration not given, 2 h",reference: control,beat amplitude,101%
c1coc(-c2n[nH]cc2-c2ccnc3ccccc23)c1,SSK2 (Candida albicans),"kinase binding, MIB/MS competition",Candida albicans lysate,10 µM,reference: DMSO,log2 fold change,-0.16
Nc1nc(-c2ccccc2)nc2[nH]nc(Nc3ccc(C(F)(F)F)cc3)c12,coxsackievirus B3,,"31-1-93, NMRI mice, CVB3 chronic myocarditis","oral, 100 mg/kg twice daily, day 7, dosed days 3 to 10, score scale 0 to 7",direction not given,clinical score,0.9
Cn1cncc1C[C@H](NC(=O)CCN)C(=O)O,,"binding, equilibrium dialysis LC-MS",,"5 µM, thermostabilized A2AR-BRIL construct","reference: no-protein control, direction not given",z-scored log2 fold change,0.201
CCOc1cc2ncc(C#N)c(Nc3ccc(F)c(Cl)c3)c2cc1NC(=O)/C=C/CN(C)C,NLRP3 inflammasome (mouse),,mouse BMDM,10 µM,,inhibition,83.6%
CCOc1cc2ncc(C#N)c(Nc3ccc(OCc4ccccn4)c(Cl)c3)c2cc1NC(=O)/C=C/CN(C)C,iCell Cardiomyocytes (hiPSC-derived),xCELLigence Cardio impedance,,"concentration not given, 2 h",reference: control,beat amplitude,100%
Cc1cc2c(F)c(Oc3ncnn4cc(OC[C@@H](C)OC(=O)[C@H](C)N)c(C)c34)ccc2[nH]1,NLRP3 inflammasome (mouse),,mouse BMDM,10 µM,,inhibition,37.9%
O=C(/C=C/C=C/C=C/C1CCCCC1)NC1=C[C@@](O)(/C=C/C=C/C=C/C(=O)NC2=C(O)CCC2=O)[C@@H]2O[C@@H]2C1=O,CAL-120,"cell growth, CellTiter-Glo",,78 h,,GI50,26.4 µM
C[C@H]1CN(C2COC2)CCN1c1ccc(Nc2cc(-c3ccnc(N4CCn5c(cc6c5CC(C)(C)C6)C4=O)c3CO)cn(C)c2=O)nc1,NLRP3 inflammasome (mouse),,mouse BMDM,10 µM,,inhibition,-44.3%
C[C@@H](Oc1cc(-n2cnc3ccc(CN4CCN(C)CC4)cc32)sc1C(N)=O)c1ccccc1C(F)(F)F,iCell Cardiomyocytes (hiPSC-derived),CellTiter-Glo,,"concentration not given, 24 h",reference: control,ATP level,102%
O=C(O)c1ccccc1,,"binding, equilibrium dialysis LC-MS",,"5 µM, thermostabilized A2AR-BRIL construct","reference: no-protein control, direction not given",z-scored log2 fold change,0.203
CNC(=O)CN1CCC(Oc2cc3c(Nc4cccc(Cl)c4F)ncnc3cc2OC)CC1,NLRP3 inflammasome (mouse),,mouse BMDM,10 µM,,inhibition,-54.1%
O=C(Nc1ccc([N+](=O)[O-])cc1Cl)c1cc(Cl)ccc1O,human alphaherpesvirus 1,,"K26 GFP, 3D skin equivalent, submerged",,reference: CC50 over IC50,selectivity index,> 27.8
Cc1ccc(Nc2nccc(N(C)c3ccc4c(C)n(C)nc4c3)n2)cc1S(N)(=O)=O,NLRP3 inflammasome (mouse),,mouse BMDM,10 µM,,inhibition,16.5%
OC[C@H]1O[C@H](O[C@H]2O[C@H](CO)[C@@H](O)[C@H](O)[C@H]2O)[C@H](O)[C@@H](O)[C@@H]1O,,"binding, equilibrium dialysis LC-MS",,"5 µM, thermostabilized A2AR-BRIL construct","reference: no-protein control, direction not given",z-scored log2 fold change,0.0582
O=C(/C=C\n1cnc(-c2cc(C(F)(F)F)cc(C(F)(F)F)c2)n1)NNc1ccccn1,human alphaherpesvirus 1,,"K26 GFP, 3D skin equivalent, submerged",,reference: CC50 over IC50,selectivity index,> 28.6
CNC(=O)c1cccc(-c2ccc3c(N4CCOC[C@@H]4C)nc(N4CCOC[C@@H]4C)nc3n2)c1,NLRP3 inflammasome (mouse),,mouse BMDM,10 µM,,inhibition,20.8%
N[C@@H](CCC(=O)O)C(=O)O,,"binding, equilibrium dialysis LC-MS",,"5 µM, thermostabilized A2AR-BRIL construct","reference: no-protein control, direction not given",z-scored log2 fold change,0.212
Oc1ccccc1-c1n[nH]cc1-c1ccnc2ccccc12,orf19.6492 Candida albicans,"kinase binding, MIB/MS competition",Candida albicans lysate,1 µM,reference: DMSO,log2 fold change,0.07
O=C(NC1CCNCC1)c1[nH]ncc1NC(=O)c1c(Cl)cccc1Cl,iCell Cardiomyocytes (hiPSC-derived),cellular impedance,,"concentration not given, 24 h",reference: control,cell index,88.6%
Cc1cccc(C)c1N(CC(=O)Nc1ccc(-c2ncon2)cc1)C(=O)C1CCS(=O)(=O)CC1,human alphaherpesvirus 1,,"K26 GFP, 3D skin equivalent, submerged",,reference: CC50 over IC50,selectivity index,> 37
NC(=O)c1cnc2[nH]ccc2c1N[C@@H]1[C@@H]2CC3C[C@H]1C[C@@](O)(C3)C2,,"flow cytometry, item: memory T cells (CD3+ CD45RA-)","Japanese healthy subjects, peripheral blood","oral, 10 mg twice daily, day 7",,change from baseline,2.72%
CCN1CCN(Cc2ccc(NC(=O)Nc3ccc(Oc4cc(NC)ncn4)cc3)cc2C(F)(F)F)CC1,iCell Cardiomyocytes (hiPSC-derived),xCELLigence Cardio impedance,,"concentration not given, 2 h",reference: control,beat amplitude,102%
O=C(O)[C@@H]1CCCCN1,,"binding, equilibrium dialysis LC-MS",,"5 µM, thermostabilized A2AR-BRIL construct","reference: no-protein control, direction not given",z-scored log2 fold change,0.176
